{"data": "Measured values gathered from unrelated publications", "note": "A part holds a random share of what one study measured."}
{"data": "Block 1", "Compound": "CNC(=O)c1ccc(-c2cnn3ccc(C(=O)N(C)c4ccc(Cl)c(C(=O)OC)c4)cc23)cc1", "sample": "plasma", "route": "oral"}
{"species": "Wistar rat, both sexes", "dose": "250 mg/kg/day", "time": "2 weeks", "notes": "GLP toxicology study", "Cmax [ng/mL]": 2.09}
{"species": "beagle dog", "dose": "15 mg/kg/day", "notes": "multiple doses", "Cmax [ng/mL]": 20}
{"species": "beagle dog", "dose": "50 mg/kg/day", "notes": "multiple doses", "Cmax [ng/mL]": 38.7}
{"species": "bovine", "dose": "20 mg/kg/day", "Cmax [ng/mL]": 10.1}
{"species": "female C57BL/6 mouse", "dose": "3 mg/kg/day", "Cmax [ng/mL]": 0.1}
{"species": "beagle dog", "dose": "250 mg/kg/day", "notes": "multiple doses", "Cmax [ng/mL]": 76.5}
{"data": "Block 2", "cell line": "HEK-293T", "effect on": "pseudovirus infection", "method": "FDA-approved drug library counter-screen", "organism": "VSV pseudotyped with VSV-G", "tested at": "10 µM", "time": "16 h", "reference": "vehicle-treated"}
{"Compound": "COc1cc(C(=O)NS(=O)(=O)c2ccccc2C)ccc1Cc1cn(C)c2ccc(NC(=O)OC3CCCC3)cc12", "GFP-positive cells [%]": 117}
{"Compound": "Nc1nnc(-c2cccc(Cl)c2Cl)c(N)n1", "GFP-positive cells [%]": 108}
{"Compound": "C#C[C@]1(O)CC[C@H]2[C@@H]3CCC4=CC(=O)CC[C@@H]4[C@H]3C(=C)C[C@@]21CC", "GFP-positive cells [%]": 93.3}
{"Compound": "O=C(Nc1c(Cl)cncc1Cl)c1ccc(OC(F)F)c(OCC2CC2)c1", "GFP-positive cells [%]": 118}
{"data": "Other studies, line by line"}
{"SMILES": "COc1cc(C(=O)OCCCN2CCCN(CCCOC(=O)c3cc(OC)c(OC)c(OC)c3)CC2)cc(OC)c1OC", "system": "CD-1 mice, male, brain", "setting": "subcutaneous, 30 mg/kg, 4.5 h", "endpoint": "concentration", "value": "24.2 ng/mL"}
{"SMILES": "CCCCCCCCCCCCCCCCOP(=O)([O-])OCC[N+](C)(C)C", "target or system": "Leishmania donovani", "system": "THP-1 intracellular amastigotes, DD8 resistant line", "setting": "0.02 µM, resistance confirmation", "endpoint": "inhibition", "value": "1%"}
{"note": "Repeated from above (block 2):"}
{"Compound": "Nc1nnc(-c2cccc(Cl)c2Cl)c(N)n1", "GFP-positive cells [%]": 108}
